Measurements of several laboratories.
Parts stem from different laboratories: compare values within a part only. Changes are numbered by the printed parent chain.

Sample 1
Target: RNA binding protein fox-1 homolog 2, RRM domain, GST-SBP tag (RBFOX2, Homo sapiens, UniProt O43251-10, residues 100-194)
Method: RNA Bind-n-Seq
Molecule type: RNA
Matrix: in vitro
Concentration: 365 nM
Notes: natural RNA segment, single round, ends assumed
Baseline: no-protein control
Direction: higher = stronger binding
Endpoint: RBNS enrichment (R)
All sequences stand within: GGGAGUUCUACAGUCCGACGAUC … UGGAAUUCUCGGGUGCCAA
Construct (chain): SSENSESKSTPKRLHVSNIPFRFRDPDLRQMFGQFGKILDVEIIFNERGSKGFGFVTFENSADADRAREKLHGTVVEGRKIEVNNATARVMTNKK
GCAAGGGUCCCAGCUGCCCCGAGGCAGUCUGUGGCCCUGGUUGAAGGAAGCACAAACUAGAUGUCUGCAUCUCAUCUGGGCGUGCAGACAGGUGAGGAUCAGCAGGGUCC: 0.334
AGGGCAAAGAGCAGGCACCACUCAGAACGUGGUGAGUACAGCUCAGCUCAGCACUCAGUCAGUGGUAACUUGUGCCCAGCCCUGUGCUAGGCGCUGACAUUAACAGGAGC: 0.284
CUCUUUGAUACACUUUUGCUUGCCUCCCCAGGAAAGAAGGAAUUGCAUCCAAGGUAUACAUACAUAUUCAUCGAUGUUUCGUGCUUCUCCUUAUGAAACUCCAGCUAUGU: 0.942
GCAAUAAAAAUGAACCAAAGGAUAUUUCCAGAAAGGAUUAAGAAAGCUGUUUAAGAAGGCCAUGACUCUUUAGGUGUGUAUGUGUACCUUUCAGCAUCCUAGGAAUUUUU: 0.492
ACAGUGCGUUCCUGAGACACCCUCUUUGGGAGCACAGGCAGUUAGCUGGAAGAACUCCAAGGAAAAGAAUUUUCCACAAAACUCAAGAAUGUCGAGACUUAACGAAGGCU: 0.24
GUCUAGGGAUGGGUGAAAAAUAAUGUCGGCAUUGUUUUUUAAUUUUUUAAAAAAUAAAUGGUAUCUUAUUUAAUUGUCCUGUUCCUUCCCACUCCUUCCCCCCCUCCCCC: 0.632
UGCUUUUUUUCUCUAUUAUGGCAAAUAUUGAAUAUUCAUGAACAUAACUUGCUAAACAAGUAUUCCAAAAAUUUGAUCUAGUCAAUCCAUUGUGUGAAUCUCAAAUAUCU: 0.426
GCCUGUAUUAUAAUGUGAAUUUUGUAGAUGUAGGGAAUAAGUUGCUGUAAAAUGUGUGUAAAUUUGUAUCCUUUACACAAGUUUAGUCUCUUACUCUGACACAUAGUAAU: 1.32
AAUACUUGGGAUCUUGUUUAGAGAAUCCACUUUCUGGAAGUUCUCAGCAUAAUUAGUGUUGAGAGUGGUUCAGUUGUCUUUAAUGUUUGUCAUGUGGAAAUGGAAGUAGC: 0.69
GCUCAUGCCCAUUUUAUUCUUAUAUGUAUGCUACAUACAGUAUGUUGGUUUCCCGAAUAGUGUGCAUUCCAGCUGGAUAGUCUUAGGCAUGAUGAUAAUAAAAUCAAAAG: 0.541
CCCAGGCUGUCUCAGUGUCAUCAUGUUGCCAGGUCUUUGUGUUUCUGCAGCCCACAUGAUCCUUGAGAGUUUUGGGUUUCGGUAACACCUCAGGGCCACUGCAUUGUUUU: 0.377
AUUAAAUGUUUUAGUAUUUUGAACUGAAAUGGACAAAAAAAGAAAAAGGAAAAAAAAAGCAGGUUUGAACGAUCACUUUGUGGCCUCCUGGCCACUUUUAGACAUUAUCA: 0.687

Sample 2
Target: CCND1, cyclin fold, Cln2 fusion (human)
Method: yeast growth competition, sequencing
Matrix: yeast
Notes: strong parent motif
Baseline: not given
Direction: higher = stronger binding
Endpoint: normalised enrichment score
Starting sequence: SCAPER docking peptide (human); SNARRSLNFGGST
T13I: 1.12
S12C: 1.09
A3L: -0.314
S12N: 1.2
R4N: 0.639
G11T: 1.42
F9P: -0.00375
S12I: 1.23
L7A: 1.05
N2S: 1.42
G11Q: 0.937
G11L: 0.177
R5A L7A: -0.0227

Sample 3
Target: Histone acetyltransferase KAT6A, winged helix 2, GST fusion (KAT6A, Homo sapiens, UniProt Q92794, residues 85-181)
Method: protein binding microarray
Molecule type: double-stranded DNA, one strand shown
Matrix: in vitro
Concentration: not given
Notes: 8-mer, flanks averaged, mean of 2 arrays, mostly near background
Baseline: not given
Direction: higher = stronger binding
Endpoint: E-score
Construct (chain): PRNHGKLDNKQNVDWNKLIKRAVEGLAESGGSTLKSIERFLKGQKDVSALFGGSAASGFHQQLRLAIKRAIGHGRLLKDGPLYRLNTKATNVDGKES
GAAGTAAA: 0.107
CGACCTAC: -0.00811
CTCGATTC: -0.0203
GAATACAC: -0.045
ACTGGCGG: -0.031
TGATCAAA: -0.0716
CAAACCGC: 0.146
ATCGATGA: -0.0437
AAAGAGGA: -0.197
ACGTCAAC: -0.0785
GGGGAGAA: -0.0211
ATAGTACG: -0.192
ACCCCCCG: 0.0342

Further values, each from its own experiment
PhoQ, residues 284 288 289 292 302 303 SLSLLA
fold induction (PhoP, residues 12 14 15 18 19 HEGLL (Escherichia coli, UniProt P23836); Sort-seq, item: YFP reporter; E. coli; PhoQ-PhoP variant library, together with: 10 µM Mg2+; baseline: high Mg2+ state, higher = stronger signaling): 84.8

Repeated from above (sample 1):
GCAAGGGUCCCAGCUGCCCCGAGGCAGUCUGUGGCCCUGGUUGAAGGAAGCACAAACUAGAUGUCUGCAUCUCAUCUGGGCGUGCAGACAGGUGAGGAUCAGCAGGGUCC: 0.334
AGGGCAAAGAGCAGGCACCACUCAGAACGUGGUGAGUACAGCUCAGCUCAGCACUCAGUCAGUGGUAACUUGUGCCCAGCCCUGUGCUAGGCGCUGACAUUAACAGGAGC: 0.284
ACAGUGCGUUCCUGAGACACCCUCUUUGGGAGCACAGGCAGUUAGCUGGAAGAACUCCAAGGAAAAGAAUUUUCCACAAAACUCAAGAAUGUCGAGACUUAACGAAGGCU: 0.24
GCAAUAAAAAUGAACCAAAGGAUAUUUCCAGAAAGGAUUAAGAAAGCUGUUUAAGAAGGCCAUGACUCUUUAGGUGUGUAUGUGUACCUUUCAGCAUCCUAGGAAUUUUU: 0.492
CCCAGGCUGUCUCAGUGUCAUCAUGUUGCCAGGUCUUUGUGUUUCUGCAGCCCACAUGAUCCUUGAGAGUUUUGGGUUUCGGUAACACCUCAGGGCCACUGCAUUGUUUU: 0.377
GCCUGUAUUAUAAUGUGAAUUUUGUAGAUGUAGGGAAUAAGUUGCUGUAAAAUGUGUGUAAAUUUGUAUCCUUUACACAAGUUUAGUCUCUUACUCUGACACAUAGUAAU: 1.32
AAUACUUGGGAUCUUGUUUAGAGAAUCCACUUUCUGGAAGUUCUCAGCAUAAUUAGUGUUGAGAGUGGUUCAGUUGUCUUUAAUGUUUGUCAUGUGGAAAUGGAAGUAGC: 0.69
